Assay results from different studies.
Lines come from different studies, so protocols differ. “And” joins repeats or separate records; there may be more than shown. Numbers after ± are the reported error.

With `O=C(O)C(F)(F)C(F)(F)C(F)(F)C(F)(F)C(F)(F)C(F)(F)C(F)(F)C(F)(F)C(F)(F)F` the LDH release was 5.68 mU/mL and 6.87 mU/mL and 4.77 mU/mL and 5.96 mU/mL (hTERT-RPTEC-OAT1; concentration not given, 96-well plate).
`N=C(N)NCCC[C@H](NC(=O)[C@H](CCCNC(=N)N)NC(=O)[C@H](CCCNC(=N)N)NC(=O)[C@H](CCC(N)=O)NC(=O)[C@H](CCCNC(=N)N)NC(=O)[C@H](CCCNC(=N)N)NC(=O)[C@H](CCCCN)NC(=O)[C@H](CCCCN)NC(=O)[C@H](CCCNC(=N)N)NC(=O)CNC(=O)[C@H](Cc1ccc(O)cc1)NC(=O)CNC(=O)CNC(=O)CNC(=O)c1ccc2c(c1)C(=O)OC21c2ccc(O)cc2Oc2cc(O)ccc21)C(N)=O` has a transport ratio of 5.8% (hCMEC/D3 monolayers; BBB permeability, Transwell, item: CF-labelled compound; EGM-2 medium; concentration not given, 2 h, apical to basal; relative to: fluorescence added apically).
`CC[C@H](C)[C@H](NC(=O)CNC(=O)[C@H](C)NC(=O)[C@@H](NC(=O)[C@@H](NC(=O)[C@@H](NC(=O)[C@H](CCCNC(=N)N)NC(=O)[C@@H](NC(=O)[C@@H](NC(=O)[C@@H](NC(=O)[C@@H]1CCCN1C(=O)[C@H](Cc1c[nH]c2ccccc12)NC(=O)[C@@H](NC(=O)[C@H](CCCNC(=N)N)NC(=O)[C@H](CCCCN)NC(=O)[C@@H](NC(=O)[C@@H](N)CCCNC(=N)N)[C@@H](C)CC)C(C)C)C(C)C)C(C)C)[C@@H](C)CC)[C@@H](C)O)C(C)C)C(C)C)C(=O)N[C@@H](CC(N)=O)C(=O)N[C@@H](CC(C)C)C(=O)N[C@@H](Cc1ccc(O)cc1)C(=O)N[C@@H](CCCNC(=N)N)C(=O)N[C@@H](C)C(=O)N[C@H](C(=O)N[C@@H](CCCCN)C(=O)N[C@@H](CCCNC(=N)N)C(=O)N[C@@H](CCCCN)C(=O)O)[C@@H](C)CC` has an HC50 of 2.42 log10 µg/mL (rat erythrocytes; haemolysis; 1 h, 37 °C, 2% erythrocytes in PBS).
For `CC(C)C[C@H](NC(=O)[C@H](CCCNC(=N)N)NC(=O)[C@H](CCCNC(=N)N)NC(=O)[C@H](CCCNC(=N)N)NC(=O)[C@@H]1CCCN1C(=O)[C@H](Cc1ccccc1)NC(=O)[C@H](Cc1ccc(O)cc1)NC(=O)[C@H](CCCNC(=N)N)NC(=O)[C@H](Cc1ccc(O)cc1)NC(=O)[C@@H](NC(=O)[C@H](CC(C)C)NC(=O)[C@H](Cc1ccc(O)cc1)NC(=O)[C@H](CCCNC(=N)N)NC(=O)[C@H](Cc1c[nH]cn1)NC(=O)[C@@H]1CCCN1C(=O)[C@H](Cc1c[nH]c2ccccc12)NC(=O)[C@H](Cc1ccc(O)cc1)NC(=O)[C@H](Cc1ccccc1)NC(=O)[C@@H]1CCCN1C(=O)[C@H](CCC(N)=O)NC(=O)[C@H](Cc1ccccc1)NC(=O)[C@@H]1CCCN1C(=O)[C@H](Cc1ccccc1)NC(=O)[C@H](CCCNC(=N)N)NC(=O)[C@H](Cc1c[nH]cn1)NC(=O)[C@H](CC(N)=O)NC(=O)[C@H](CS)NC(=O)[C@H](CCCNC(=N)N)NC(=O)[C@H](CO)NC(=O)[C@@H]1CCCN1C(=O)[C@@H](NC(=O)[C@H](Cc1ccccc1)NC(=O)[C@@H]1CCCN1C(=O)[C@@H](N)CCCNC(=N)N)C(C)C)[C@@H](C)O)C(=O)N[C@@H](CCC(N)=O)C(=O)N[C@@H](CCCNC(=N)N)C(=O)O`, the CC50 was 69.4 µM (HaCaT; cell viability, MTT).
The LC50 of `C[C@@H]1CC[C@@]2(OC1)O[C@H]1[C@@H](O)[C@H]3[C@@H]4CC[C@H]5C[C@@H](O[C@@H]6O[C@H](CO)[C@H](O[C@@H]7O[C@H](CO)[C@@H](O)[C@H](O[C@@H]8OC[C@@H](O)[C@H](O)[C@H]8O)[C@H]7O[C@@H]7O[C@H](CO)[C@H](O)[C@H](O[C@@H]8O[C@H](CO)[C@@H](O)[C@H](O)[C@H]8O)[C@H]7O)[C@H](O)[C@H]6O)[C@H](O)C[C@]5(C)[C@H]4CC[C@]3(C)[C@H]1[C@@H]2C` is reported as 9.68 µM (HEK293; resazurin reduction; 24 h).
The EC50 of `N#C[C@H](C[C@@H]1CCCNC1=O)NC(=O)[C@H](CC1CC1)NC(=O)c1cc2cccc(Cl)c2[nH]1` is reported as 2100 nM (cryopreserved human hepatocytes; mRNA induction, inducer, item: CYP3A4; 72 h).
For `O=c1ccc2ccccc2o1`, “point of departure” read 497 µM (HepaRG 3D spheroids; spheroid size; 168 h, high-content imaging).
The cell viability of `CC(=O)OC[C@H]1O[C@@H](Oc2cc(O)cc3cc4oc(C)cc(=O)c4c(O)c23)[C@H](O)[C@@H](O)[C@@H]1O` is reported as 77.5 ± 2.94% (HK-2 co-cultured with HepaRG; MTT; 266.67 µM, 48 h; relative to: untreated control).
`CCCCCCCC(=O)NCC(=O)N[C@@H](Cc1ccccc1)C(=O)N[C@H](C=O)Cc1c[nH]cn1` — result for “minimum cytotoxic concentration”: > 100 µM (HEL; cell morphology).
`CC(C)(c1ccc(O)cc1)c1ccc(O)cc1` — result for “early apoptotic cells”: 0.85 ± 0.44% (HepG2 spheroids, dissociated; annexin V-FITC/PI flow cytometry; 1 µM, 24 h).
With `Cc1cc2c(c(O)c1O)C(=O)c1c(O)cc(O)cc1C2=O` the cell viability was 130 ± 19.3% (HK-2 co-cultured with HepaRG; MTT; 133.33 µM, 24 h; relative to: untreated control).
`O=C(O)C(F)(F)C(F)(F)C(F)(F)C(F)(F)C(F)(F)C(F)(F)C(F)(F)C(F)(F)C(F)(F)C(F)(F)F` gave an LDH release of 10.1 mU/mL and 15.1 mU/mL and 11.1 mU/mL and 20.5 mU/mL (hTERT-RPTEC-OAT1; concentration not given, Transwell, apical-to-basolateral addition).
`O=C1c2ccccc2C(=O)c2ccccc21` gave a viability of 62.5 ± 3.19% (HK-2 co-cultured with HepaRG; MTT; 33.33 µM, 48 h; relative to: untreated control).
For `CC[C@H](C)[C@H](NC(=O)[C@H](CCCNC(=N)N)NC(=O)[C@@H](N)C(C)C)C(=O)N[C@@H](CO)C(=O)NCC(=O)N[C@@H](CCCNC(=N)N)C(=O)NCC(=O)N[C@@H](Cc1ccccc1)C(=O)N[C@@H](CS)C(=O)N[C@H](C(=O)N[C@@H](CCCCN)C(=O)N[C@@H](CCSC)C(=O)N[C@@H](Cc1ccccc1)C(=O)N[C@@H](Cc1ccc(O)cc1)C(=O)N[C@H](C(=O)N[C@@H](CCCCN)C(=O)N1CCC[C@H]1C(=O)N[C@H](C(=O)N[C@@H](CCCCN)C(=O)N[C@@H](Cc1ccc(O)cc1)C(=O)N[C@@H](CCCCN)C(=O)NCC(=O)N1CCC[C@H]1C(=O)N[C@H](C(=O)N[C@@H](CCCCN)C(=O)N[C@@H](CCCCN)C(=O)NCC(=O)N[C@@H](CCC(=O)O)C(=O)N[C@@H](CCCCN)C(=O)N[C@@H](CC(C)C)C(=O)NCC(=O)N[C@H](C(=O)N[C@@H](CC(C)C)C(=O)N[C@@H](CC(C)C)C(=O)N1CCC[C@H]1C(=O)N[C@@H](CC(C)C)C(=O)N[C@@H](CCC(N)=O)C(=O)N[C@@H](CCCCN)C(=O)N[C@H](C(=O)N[C@@H](Cc1ccc(O)cc1)C(=O)O)C(C)C)[C@@H](C)O)[C@@H](C)CC)[C@@H](C)CC)[C@@H](C)CC)C(C)C`, the CC50 was 96.8 µM (HaCaT; cell viability, MTT; 24 h).
`C[C@@H](O)[C@H](NC(=O)CNC(=O)CNC(=O)CNC(=O)c1ccc2c(c1)C(=O)OC21c2ccc(O)cc2Oc2cc(O)ccc21)C(=O)N[C@@H](Cc1ccccc1)C(=O)N[C@@H](Cc1ccccc1)C(=O)N[C@@H](Cc1ccc(O)cc1)C(=O)NCC(=O)NCC(=O)N[C@@H](CO)C(=O)N[C@@H](CCCNC(=N)N)C(=O)NCC(=O)N[C@@H](CCCCN)C(=O)N[C@@H](CCCNC(=N)N)C(=O)N[C@@H](CC(N)=O)C(=O)N[C@@H](CC(N)=O)C(=O)N[C@@H](Cc1ccccc1)C(=O)N[C@@H](CCCCN)C(=O)N[C@H](C(=O)N[C@@H](CCC(=O)O)C(=O)N[C@@H](CCC(=O)O)C(=O)N[C@@H](Cc1ccc(O)cc1)C(N)=O)[C@@H](C)O` gave a transport ratio of 4.8% (hCMEC/D3 monolayers; BBB permeability, Transwell, item: CF-labelled compound; EGM-2 medium; concentration not given, 1 h, apical to basal; relative to: fluorescence added apically).
`O=C(Nc1cccc(OS(=O)(=O)c2ccc(Cl)cc2)c1)c1ccc2ncccc2c1` gave a viability of 82.3 ± 1.09% (HEK293T; MTT; 100 µM, 24 h).
`CC(C)NCC(O)COc1ccc(CC(N)=O)cc1` (centres unmarked) gave an IC10 of 4.28 mM (MCF7 AREc32 cells; cell confluency, IncuCyte imaging; 24 h, nominal concentration).
`C=C(C)[C@H]1Cc2c(ccc3c2O[C@@H]2COc4cc(OC)c(OC)cc4[C@@H]2C3=O)O1` has an IC50 of 0.3 ± 0.1 µM (THLE-2 transduced with Ad-CYP2C9; metabolism-induced cytotoxicity; 48 h, 3D Matrigel spots).
For `O=C(O)C(F)(F)C(F)(F)C(F)(F)C(F)(F)F`, the LDH release was 6.29 mU/mL and 5.56 mU/mL and 7.67 mU/mL (hTERT-RPTEC-OAT1; concentration not given, 96-well plate).
For `Oc1ccc(C(c2ccc(O)cc2)(C(F)(F)F)C(F)(F)F)cc1`, “early apoptotic cells” read 17.2 ± 7.22% (HepG2 spheroids, dissociated; annexin V-FITC/PI flow cytometry; 1 µM, 24 h).
`CC(C)(C)OC(=O)N[C@H]1CCCCC/C=C\[C@@H]2C[C@@]2(C(=O)NS(=O)(=O)C2CC2)NC(=O)[C@@H]2C[C@@H](OC(=O)N3Cc4cccc(F)c4C3)CN2C1=O` has a CC50 of 31.1 µM (HEK293T; cell viability, MTT; 48 (unit not given)).
`COc1ccc(NC(=O)N2CCCCN3[C@H](CN(C)C)[C@H](c4ccc(C#Cc5ccccc5)cc4)[C@@H]3C2)cc1` has a CC50 of 5 µM (HEK-293T).
The IC50 of `CC[C@H](C)[C@H](NC(=O)CN)C(=O)N[C@@H](Cc1c[nH]c2ccccc12)C(=O)N[C@@H](CC(=O)O)C(=O)N[C@@H](CCSC)C(=O)N[C@H](C(=O)N[C@@H](CCCNC(=N)N)C(=O)N[C@@H](CCCCN)C(=O)N[C@H](C(=O)N[C@@H](CCCNC(=N)N)C(=O)N[C@H](C(=O)N[C@H](C(=O)N[C@H](C(=O)N[C@@H](CCCNC(=N)N)C(=O)N[C@@H](CCCCN)C(=O)N[C@@H](C)C(=O)N[C@@H](CCCCN)C(=O)N[C@@H](CCC(N)=O)C(=O)N[C@H](C(=O)N[C@@H](CCCCN)C(=O)N[C@H](C(=O)N[C@@H](Cc1ccccc1)C(=O)N[C@H](C(=O)N[C@@H](CC(N)=O)C(=O)NCC(=O)N[C@@H](CCCCN)C(=O)NCC(=O)N[C@H](C(=O)N[C@@H](CCC(N)=O)C(=O)O)C(C)C)[C@@H](C)CC)[C@@H](C)O)[C@@H](C)CC)[C@@H](C)CC)C(C)C)[C@@H](C)O)C(C)C)[C@@H](C)CC` is reported as 23.9 µM (HaCaT; cytotoxicity, MTT; 24 h, 37 °C).
For `CC[C@H](C)[C@H](NC(=O)[C@H](CCCCN)NC(=O)[C@H](CCC(N)=O)NC(=O)[C@@H](NC(=O)[C@@H](NC(=O)[C@H](CCCCN)NC(=O)[C@H](CCCNC(=N)N)NC(=O)[C@H](Cc1ccccc1)NC(=O)CN)[C@@H](C)CC)C(C)C)C(=O)N[C@@H](CCCNC(=N)N)C(=O)N[C@@H](CC(=O)O)C(=O)N[C@@H](Cc1ccccc1)C(=O)N[C@@H](CC(C)C)C(=O)N[C@@H](CCCNC(=N)N)C(=O)N[C@@H](CC(N)=O)C(=O)N[C@@H](CC(C)C)C(=O)N[C@H](C(N)=O)C(C)C`, the LC50 was 60 µM (HaCaT; cell viability, MTS; 1 h, 37 °C, 10% FBS).
`COc1ccc2c(c1OC)C(=O)c1c(cc(C)c(O)c1OC)C2=O` gave a cell viability of 65.7 ± 7.25% (HK-2 co-cultured with HepaRG; MTT; 266.67 µM, 24 h; relative to: untreated control).
`CC[C@H](C)[C@H](NC(=O)[C@H](CO)NC(=O)[C@H](CC(N)=O)NC(=O)[C@H](CC(C)C)NC(=O)[C@H](CCCNC(=N)N)NC(=O)[C@H](CC(N)=O)NC(=O)[C@H](CS)NC(=O)[C@H](CCCCN)NC(=O)[C@@H](NC(=O)[C@H](CCCCN)NC(=O)[C@H](CC(C)C)NC(=O)[C@H](CC(N)=O)NC(=O)[C@@H](NC(=O)[C@@H]1CCCN1C(=O)[C@@H]1CCCN1C(=O)[C@H](Cc1ccc(O)cc1)NC(=O)[C@H](CCCCN)NC(=O)[C@H](CC(N)=O)NC(=O)[C@@H](NC(=O)[C@H](C)NC(=O)[C@H](CCCNC(=N)N)NC(=O)[C@H](CCCNC(=N)N)NC(=O)[C@@H](NC(=O)[C@H](CO)NC(=O)[C@H](CC(N)=O)NC(=O)[C@@H](NC(=O)[C@H](Cc1ccccc1)NC(=O)[C@H](CO)NC(=O)[C@H](CCCCN)NC(=O)[C@@H](NC(=O)[C@H](Cc1ccccc1)NC(=O)[C@H](CCCCN)NC(=O)[C@@H](N)C(C)C)C(C)C)[C@@H](C)CC)[C@@H](C)CC)[C@@H](C)CC)[C@@H](C)CC)[C@@H](C)CC)C(=O)O` has a CC50 of 38.5 µM (HaCaT; cell viability, MTT).
